# Measured values from different studies.
# Every numbered part comes from another study and shows a few of its results, in no order. Substitutions count along the parent as printed.

# Study 1
# Target: Centromere-binding protein 1, full length, N-terminal tag (CBF1, Saccharomyces cerevisiae, UniProt P17106, residues 1-351)
# Sequence of UniProt P17106 (whole entry, looked up): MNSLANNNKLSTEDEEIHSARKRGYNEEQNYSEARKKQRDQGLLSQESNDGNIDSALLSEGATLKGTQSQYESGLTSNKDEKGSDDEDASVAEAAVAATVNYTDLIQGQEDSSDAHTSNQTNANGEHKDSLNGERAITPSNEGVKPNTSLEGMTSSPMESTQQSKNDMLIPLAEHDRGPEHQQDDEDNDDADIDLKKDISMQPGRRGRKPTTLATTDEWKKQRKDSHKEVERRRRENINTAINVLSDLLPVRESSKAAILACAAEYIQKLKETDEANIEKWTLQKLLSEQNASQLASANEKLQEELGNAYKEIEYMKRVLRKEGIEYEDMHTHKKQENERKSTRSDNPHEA
# Method: protein-binding microarray
# Form: double-stranded DNA, one strand shown
# Medium: in vitro
# Tested at: 0.8 µM
# Notes: whole 60-bp probe, no competitor
# Reading: higher = stronger binding
Strand,fluorescence intensity [a.u.]
CCTAACTACTATACGCACGTATCATAGCTTCGTACAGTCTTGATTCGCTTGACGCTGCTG,516
CTAATTGTGCAGGTTCAGCTGATGTATAGGCTGTTCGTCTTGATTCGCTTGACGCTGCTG,559
CTACACTGACGGGGTCACGTGTGTTTATTCTGTTTCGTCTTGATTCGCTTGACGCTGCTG,13800
CTATAGCAAGGACGTCACCTGGACTCCTGACTATTCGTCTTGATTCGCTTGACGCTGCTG,732
GAATGAAAGACGCACCACATGTACATATCACGTTAGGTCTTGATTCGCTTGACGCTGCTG,966
CTATACCTTTTTCATCATGATATGAATTGATACTTCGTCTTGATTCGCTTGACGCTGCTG,536
CTAAAGAGAGTGAATCAGATGAGGATAGGGTTATTCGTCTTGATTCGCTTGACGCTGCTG,528
CCTAACTACTATAAGCACGTGGGATAGCTTCGTACAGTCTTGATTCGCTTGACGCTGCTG,5640
CCTAACTACTATATAAATGACCAATAGCTTCGTACAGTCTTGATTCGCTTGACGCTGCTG,575
GAAAAAGGAGCATAGAACGTGGGGCAATTTACATAGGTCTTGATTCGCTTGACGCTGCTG,552
GAACACTGTCTATTCCTCGTGGACCCTCTTTCGTAGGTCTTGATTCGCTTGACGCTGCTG,563
CTAGCGTAATTCTCTCAGCTGAACAAGAACTGATTCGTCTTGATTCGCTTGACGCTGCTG,538
CCTAACTACTATAATCACGTTTAATAGCTTCGTACAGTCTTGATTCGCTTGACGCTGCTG,920
GAAGGGAGACACAAACACGAGGTAAGTCTCAAATAGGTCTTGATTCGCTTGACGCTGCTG,580
GAAACGAGAAACGCGCACGCACTTTCCACCATTTAGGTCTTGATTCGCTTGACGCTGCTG,514
CTATATGTACGGAAAGATCACATGTATATATTTTTCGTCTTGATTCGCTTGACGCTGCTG,3090
TGTACGAAGCTATTTGATGTTACTATAGTAGTTAGGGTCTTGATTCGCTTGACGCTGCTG,495
GAATACCCTCTCTAAAATGTCACCTAGTATTTTTAGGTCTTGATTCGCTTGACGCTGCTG,494
GAAGCTTTGAAGGTTAACGTCACATCTGCTGAGTAGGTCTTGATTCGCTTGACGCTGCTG,537
CTATGCTGTTTCCATCACGTGCATGTCACGTTTTTCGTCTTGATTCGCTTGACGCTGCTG,12500
GAAAGTCAATGGCATCATGCGGGAACGTGCAGTTAGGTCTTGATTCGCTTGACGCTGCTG,679
GAACTGGAAGGGCATCACCCGTCAAAACACTAATAGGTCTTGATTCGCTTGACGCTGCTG,476
CTAATGAAACGACACCACCTCCCACGATTGGGGTTCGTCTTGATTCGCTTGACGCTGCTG,488
CTAGCTCCTATACATGATGCAACAGTAATCTACTTCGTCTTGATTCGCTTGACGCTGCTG,570

# Study 2
# Target: Hepatocyte nuclear factor 3-beta, forkhead domain (FOXA2, Homo sapiens, UniProt Q9Y261, residues 142-269)
# Method: protein-binding microarray
# Form: double-stranded DNA, one strand shown
# Medium: in vitro
# Tested at: not given
# Notes: k-mer, scored over probes, only values ≥0.25
# Reading: higher = stronger binding
# Construct (chain): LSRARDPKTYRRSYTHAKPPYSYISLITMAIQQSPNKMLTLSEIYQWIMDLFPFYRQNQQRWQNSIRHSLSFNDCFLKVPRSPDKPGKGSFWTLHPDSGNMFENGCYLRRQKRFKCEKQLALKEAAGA
Strand,E-score
ACATTCAT,0.291
ATAGATAG,0.25
ATTAATGG,0.303
CTTATATC,0.286
CTCTTATA,0.291
AGTATTTA,0.365
TATGTCAA,0.368
TAAGTAAA,0.275
ATTTACAC,0.295
CTTATATA,0.332
ATCATGAC,0.254
ATACTTTA,0.369
AATAAGAC,0.362
CGTAGTAA,0.295
CGCAAACA,0.318
ATACTGAT,0.301
ATGTAAAT,0.319
AAGTATAT,0.31
CTATTTAC,0.311
GTAATGTA,0.253
TTAATAAA,0.257
GATATTAC,0.293
TATTTGCA,0.352
TACGTATA,0.275
GTTATTCA,0.324

# Study 3
# Cell line: yeast with cyclin D2-Cln2 chimera
# Observed: cell growth
# Action: binder
# Method: competitive growth deep sequencing
# Form: peptide
# Tested at: concentration not given
# Notes: peptide tiling library
# Reading: direction not given
Molecule,growth enrichment score
RDLFDCDFGDLTPLDF,0.212
QYQVVDDIVSKLVFDF,0.523
RSLKLDGLLEEN,-0.166
GLPDFVFQQQPVESEA,0.145
LRRKLFLDGNGSIS,-1.57
VEEEFFALRKRTPSAG,0.572
ARKRLELGNLGNPQ,-1.24
KPHVSDEEEEEPPFYH,0.671
EAAPPTQEAQGETEPT,0.677
ALLRRLQDVANDRGSH,2.61
CFRCLLFSFSGRSGVE,-1.04
IQKKLRFEDTLEFVGF,0.545
DVSERGYVILPNDYFE,0.199

# Study 4
# Target: ABI1, truncated, D143A, DHFR fusion (Arabidopsis thaliana)
# Method: DHFR PCA, deep sequencing
# Medium: yeast
# Notes: methotrexate growth selection, single substitutions
# Together with: (+)-ABA 17 µM
# Relative to: wild-type fitted maximum
# Reading: higher = stronger binding
# Parent: PYL1, truncated, DHFR fusion (Arabidopsis thaliana); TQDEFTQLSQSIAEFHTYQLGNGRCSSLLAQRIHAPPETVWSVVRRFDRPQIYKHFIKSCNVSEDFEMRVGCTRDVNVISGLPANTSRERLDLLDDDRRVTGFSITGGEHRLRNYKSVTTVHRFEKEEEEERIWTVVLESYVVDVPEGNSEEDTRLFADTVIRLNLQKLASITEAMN; partner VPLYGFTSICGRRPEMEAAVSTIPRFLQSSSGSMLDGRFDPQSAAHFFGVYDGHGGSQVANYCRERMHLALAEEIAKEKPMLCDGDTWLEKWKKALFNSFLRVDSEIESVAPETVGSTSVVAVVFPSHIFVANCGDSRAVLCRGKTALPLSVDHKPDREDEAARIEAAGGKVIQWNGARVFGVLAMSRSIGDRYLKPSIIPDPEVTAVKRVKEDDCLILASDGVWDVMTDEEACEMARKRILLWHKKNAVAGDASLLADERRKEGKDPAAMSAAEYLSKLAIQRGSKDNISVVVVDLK
Variant,relative binding score [%]
H122G,6.49
L82N,-1.49
E14T,71.3
F47T,-10.5
D153Q,47.1
L8R,31.2
H16K,-17.9
E38Y,16.5
R32S,73.3
L29E,-4.77
T39N,69.2
N85H,76.4
R155L,60.5
G107A,62.5
V100S,26.3
R99E,-11.8
A13V,73.9
I52A,88.2
H110Y,10.1
V78D,5.92
T106W,50.1
E64A,84.4

# Some of these lines once more (study 1):
Strand,fluorescence intensity [a.u.]
GAACACTGTCTATTCCTCGTGGACCCTCTTTCGTAGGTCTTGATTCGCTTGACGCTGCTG,563
CTAGCGTAATTCTCTCAGCTGAACAAGAACTGATTCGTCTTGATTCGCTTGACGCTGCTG,538
CCTAACTACTATAATCACGTTTAATAGCTTCGTACAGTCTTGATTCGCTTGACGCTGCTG,920
GAAGGGAGACACAAACACGAGGTAAGTCTCAAATAGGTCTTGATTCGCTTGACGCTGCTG,580
GAAACGAGAAACGCGCACGCACTTTCCACCATTTAGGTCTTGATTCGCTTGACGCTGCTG,514
CTATATGTACGGAAAGATCACATGTATATATTTTTCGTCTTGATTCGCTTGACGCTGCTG,3090
TGTACGAAGCTATTTGATGTTACTATAGTAGTTAGGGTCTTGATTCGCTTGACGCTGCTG,495
GAATACCCTCTCTAAAATGTCACCTAGTATTTTTAGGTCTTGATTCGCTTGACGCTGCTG,494
GAAGCTTTGAAGGTTAACGTCACATCTGCTGAGTAGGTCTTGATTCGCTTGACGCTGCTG,537
